Measurements from different studies.
Each line is one published result; not all experiments were run side by side.
Target: Wee1-like protein kinase 2 (WEE2, Homo sapiens, UniProt P0C1S8)

SMILES	assay	test system	setting	scale	quantity	result
CCN1CCN(Cc2ccc(C(=O)Nc3ccc(C)c(NCc4cnc5[nH]ccc5c4OC)c3)cc2C(F)(F)F)CC1	binding, competition with immobilised ligand	–	1 µM	–	remaining binding	72%
CNC1C[S+]2CC[S+]3CC[S+](C1)[Ru-4]321([N]=C=S)[n]2c3ccc(OC)cc3c3c4c(c5cc(F)c[n+]1c5c32)C(=O)NC4=O (centres unmarked)	KinomeScan	–	0.1 µM	baseline: untreated	remaining binding	91%
COc1c(Cl)cccc1Nc1c(-c2ccncc2C#C[C@@]2(C)CCCN2C(=O)/C=C/CN(C)C)[nH]c2c1C(=O)NCC2	binding, competition with immobilised ligand	–	3 µM	–	remaining binding	100%
C=CC(=O)N1CCc2ccc(-n3c(=O)ccc4cnc5ccc(-c6cnn(C)c6)cc5c43)cc21	KINOMEscan	–	1 µM	baseline: DMSO control	remaining binding	100%
CNC(=O)C1CCN(c2cc(C)c(F)cc2NC(=O)c2ccc(-c3cc(O)ccc3C)c(C)c2)CC1	binding, competition with immobilised ligand	–	1 µM	–	remaining binding	100%
CNC(=O)C[C@H](Cc1ccc(C#N)cc1)NC(=O)c1cc(-c2ccc(CN[C@H](C)c3ccc(C)cc3)o2)ccc1Cl	enzyme activity, inhibitor	–	1 µM	–	activity vs control	94%
Cc1ccc(C(=O)Nc2ccc(CN3CCN(C)CC3)c(C(F)(F)F)c2)cc1C#Cc1cnc2cccnn12	target engagement, NanoBRET	human cells	–	–	Hill slope	0.0532
C=CC(=O)N1CCCC(n2c(=O)c3ncccc3n(Cc3ccc(Oc4ccccc4)cc3)c2=O)C1 (centres unmarked)	cell-free assay, competition with immobilised ligand	–	1 µM	–	remaining binding	100%
COc1cc(Nc2nccc(-c3cnn4nc(OC)ccc34)n2)cc(C(F)(F)F)c1	binding, competition with immobilised ligand	–	1 µM	–	remaining binding	98%
O=C(Cc1ccc(OCc2ccccc2)cc1)NC1(C(=O)O)CCN(C(=O)c2ccc(-c3cccc(Cl)c3)cc2)CC1	enzyme activity, inhibitor	–	10 µM	–	activity vs control	108%
COc1cc(Nc2nc(C)cc(-c3cnn4nc(OC)ccc34)n2)cc(C(F)(F)F)c1	binding, competition with immobilised ligand	–	1 µM	–	remaining binding	100%
CN1CC[C@@H](COc2cnc(C#N)cc2-c2ccn3nc(NC(=O)C4CC4)cc3c2)C1	enzyme activity, inhibitor	–	1 µM	–	inhibition	-14%
Cc1cnc2nc1Nc1cccc(c1)COC/C=C/COCc1cc(ccc1OCCN1CCOCC1)N2	binding, competition with immobilised ligand	–	0.1 µM	–	remaining binding	49%
CC(C)=CC1OC(C)(C)C2C=C3C(=O)C(Cl)=CC(O)C3C3C(O)C4OC4C(=O)C132 (centres unmarked)	cell-free assay, competition with immobilised ligand	–	10 µM	–	remaining binding	92%
Nc1ncc2c(n1)-c1c([nH]c3ccc(C4=CCOCC4)cc13)CCC2	binding, competition with immobilised ligand	–	1 µM	–	remaining binding	100%
Cc1ccc(-c2c(/C=C(\C#N)C(=O)NC(C)C)n(CCCO)c3ncnc(N)c23)cc1	cell-free assay, competition with immobilised ligand	–	1 µM	–	remaining binding	100%
CCN1CCN(Cc2ccc(NC(=O)c3ccc(C)c(NC(=O)c4cncc(-c5cnn(C)c5)c4)c3)cc2C(F)(F)F)CC1	binding, competition with immobilised ligand	–	1 µM	–	remaining binding	100%
